Measured values collected from several papers.
Each line is one published result; not all experiments were run side by side. ± gives the spread as reported.

CC(=O)O[C@H]1C=C[C@H]2[C@H]3Cc4ccc(O)c5c4[C@@]2(CCN3C)[C@H]1O5 — stability bias (rat, whole blood; 1000 nM, 4 h, room temperature, bench-top storage): 13%
Cc1ncc2n1-c1ccc(Cl)cc1C(c1ccccc1F)=NC2 — clearance (wild-type mice, plasma; intravenous, 0.3 mg/kg, together with: 14-day CMC): 105 ± 24 mL/min
COC(=O)[C@@H]1[C@H]2CC[C@@H](C[C@@H]1O)N2C — stability bias (rat whole blood; 500 nM, 4 h, room temperature): 7.18%
O=[N+]([O-])c1ccc(N2CCC(NCCC(O)c3ccc(F)c4ccccc34)CC2)c(C(F)(F)F)c1 (stereo not shown) — survival (Salmonella typhimurium; SOS/umu test; TA1535/pSK1002; 0.031 mg/mL, 4 h, with S9, full range): 79.6%
NC(=O)C1(N2CCCCC2)CCN(CCCN2c3ccccc3CCc3ccccc32)CC1 — CC50 (African green monkey cells; 5 days): 8.61 µM
CN1CC[C@@H](c2c(O)cc(O)c3c(=O)cc(-c4ccc(C(F)(F)F)cc4Cl)oc23)[C@@H]1CO — patients with adverse event (measured: Constipation; B-cell malignancies or AML; oral, 100 mg, continuous dosing): 12.5%
Cc1cc(C(=O)NC(C)(C)COc2cccc3c2C(N)=NS(=O)(=O)N3)cc(C)n1 — revertant ratio (Salmonella typhimurium; Ames test, confirmatory; TA98; 3333 µg/plate, together with: rat liver S9; baseline: solvent control): 1.4
CN1CCN(CC/C=C2/c3ccccc3Sc3ccc(S(=O)(=O)N(C)C)cc32)CC1 — CC50 (African green monkey cells; 5 days): 4.96 µM
CN1[C@H]2CC[C@@H]1[C@@H](C(=O)O)[C@@H](OC(=O)c1ccccc1)C2 — stability bias (rat, whole blood; 1000 nM, 4 h, room temperature, bench-top storage): 3.72%
CN(C)CC/C=C1/c2ccccc2Sc2ccc(Cl)cc21 — CC50 (African green monkey cells; 5 days): 13.8 µM
O=C1c2c(O)c(=O)ccn2N([C@@H]2c3ccccc3SCc3c2ccc(F)c3F)[C@@H]2COCCN12 — plasma concentration (BALB/c mice, plasma; oral, 50 mg/kg baloxavir marboxil, 10 h): 43.6 ng/mL
CO[C@H]1C[C@@H]2CC[C@@H](C)[C@@](O)(O2)C(=O)C(=O)N2CCCC[C@H]2C(=O)O[C@H]([C@H](C)C[C@@H]2CC[C@@H](OC(=O)NCCOCCOCCOCCOCCOCCOCCOCCOCCC(=O)N3CCc4cc(Cn5nc(-c6ccc7oc(N)nc7c6)c6c(N)ncnc65)ccc4C3)[C@H](OC)C2)C[C@@H](O)[C@H](C)/C=C(\C)[C@@H](O)[C@@H](OC)C(=O)[C@H](C)C[C@H](C)/C=C/C=C/C=C/1C — incidence of Headache TEAE (patients with advanced solid tumours; intravenous, 1.6 mg/3 mg weekly, any grade): 20%
C[C@]1(CO)Cc2ncn(-c3ccc(C#N)c(Cl)c3)c2C(=O)O1 — subjects with any TEAE (human; 10 mg multiple doses, fasted): 11.1%
CN1CC[C@]23c4c5ccc(O)c4O[C@H]2[C@@H](O[C@@H]2O[C@H](C(=O)O)[C@@H](O)[C@H](O)[C@H]2O)C=C[C@H]3[C@H]1C5 — stability bias (rat, whole blood; 10 nM, 4 h, room temperature, bench-top storage): 4.83%
CC(C)(C)NC[C@H](O)COc1ccccc1C1CCCC1 — CC50 (African green monkey cells; 5 days): 29.5 µM
COC(=O)[C@H]1[C@@H](OC(=O)c2ccccc2)C[C@@H]2CC[C@H]1N2 — stability bias (rat whole blood; 500 nM, 4 h, room temperature): -0.88%
Cc1cc2nc3c(=O)[nH]c(=O)nc-3n(C[C@H](O)[C@H](O)[C@H](O)COP(=O)(O)O)c2cc1C — midpoint potential (Iodotyrosine deiodinase (Haliscomenobacter hydrossis, UniProt F4KU78, R38Q); bound cofactor redox, redox titration; pH 7.4, 25 °C, anaerobic, no substrate): -208 ± 6 mV
COc1cccc(-c2n[nH]c(SCc3ccccn3)n2)c1OC — revertant colonies per plate (Salmonella typhimurium; Ames test, preincubation; TA98; 0.25 mg/plate, with rat liver S9): 26
O=c1ccc2ccccc2o1 — chance response (NHEK; cell count; concentration not given, 6 h, HIF1alpha, inflammation, pH panel): 0.01%
CCc1ccc(CC/C=C/c2ccc3c(c2)C(=O)CC3)cc1 — Phosphorus (Sprague-Dawley rat, male; oral, 450 mg/kg/day, 14 days): 3.21 mM
CC(=O)c1ccc2c(c1)N(CCCN1CCN(CCO)CC1)c1ccccc1S2 — CC50 (African green monkey cells; 5 days): 14.6 µM
CC(C)CC(=O)OC[C@H]1O[C@@](C#N)(c2ccc3c(N)ncnn23)[C@H](O)[C@@H]1O — remaining compound (Cytochrome P450 3A5 (CYP3A5, Homo sapiens, UniProt P20815); metabolic stability; recombinant enzyme; 1 µM, 30 min): 34.1 ± 0.8%
CCOC(=O)Nc1ccc(NCc2ccc(F)cc2)nc1N — CC50 (African green monkey cells; 5 days): > 100 µM
COc1cc2c(Oc3ccc4[nH]c(C)cc4c3F)ccnc2cc1OCC1(N)CC1 — grade 3 ALP elevation (paediatric recurrent refractory sarcoma; 8 mg): 0%
CN1CCCC(CN2c3ccccc3Sc3ccccc32)C1 (stereo not shown) — CC50 (African green monkey cells; 5 days): 11.8 µM
COC(=O)[C@H]1[C@@H](OC(=O)c2ccccc2)C[C@@H]2CC[C@H]1N2C — stability bias (rat, whole blood; 10 nM, 4 months, -80 °C, long-term storage): -16.2%
CCCCN(CCCC)CCC(O)c1cc2c(Cl)cc(Cl)cc2c2cc(C(F)(F)F)ccc12 (stereo not shown) — CC50 (African green monkey cells; 5 days): 15.1 µM
O=C(c1ccc(F)c(F)c1Nc1ccc(I)cc1F)N1CC(O)([C@@H]2CCCCN2)C1 — treatment-related serious AE (patients aged 2 to 6 years; oral, dose not given): 0%
